Measurements gathered from unrelated publications.
A part holds a random share of what one study measured. Several values in a cell are separate wells, animals, samples, runs or records.
Sequence of UniProt Q9BYT3 (whole entry, looked up): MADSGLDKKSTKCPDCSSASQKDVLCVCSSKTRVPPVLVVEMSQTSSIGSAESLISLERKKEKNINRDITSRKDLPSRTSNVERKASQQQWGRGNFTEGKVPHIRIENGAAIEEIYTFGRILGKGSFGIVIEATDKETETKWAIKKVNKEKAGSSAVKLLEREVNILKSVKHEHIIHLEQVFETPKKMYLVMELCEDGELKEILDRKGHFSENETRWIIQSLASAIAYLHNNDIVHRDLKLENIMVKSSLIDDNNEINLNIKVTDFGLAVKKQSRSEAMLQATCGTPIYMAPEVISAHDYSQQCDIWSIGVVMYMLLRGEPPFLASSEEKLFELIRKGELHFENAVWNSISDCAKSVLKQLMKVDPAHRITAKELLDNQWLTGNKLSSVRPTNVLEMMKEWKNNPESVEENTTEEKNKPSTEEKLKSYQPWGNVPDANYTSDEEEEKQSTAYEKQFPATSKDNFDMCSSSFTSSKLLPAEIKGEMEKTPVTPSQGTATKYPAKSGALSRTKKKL

Series 1
Target: Muscarinic acetylcholine receptor M3 (CHRM3, Homo sapiens, UniProt P20309)
Sequence of UniProt P20309 (whole entry, looked up): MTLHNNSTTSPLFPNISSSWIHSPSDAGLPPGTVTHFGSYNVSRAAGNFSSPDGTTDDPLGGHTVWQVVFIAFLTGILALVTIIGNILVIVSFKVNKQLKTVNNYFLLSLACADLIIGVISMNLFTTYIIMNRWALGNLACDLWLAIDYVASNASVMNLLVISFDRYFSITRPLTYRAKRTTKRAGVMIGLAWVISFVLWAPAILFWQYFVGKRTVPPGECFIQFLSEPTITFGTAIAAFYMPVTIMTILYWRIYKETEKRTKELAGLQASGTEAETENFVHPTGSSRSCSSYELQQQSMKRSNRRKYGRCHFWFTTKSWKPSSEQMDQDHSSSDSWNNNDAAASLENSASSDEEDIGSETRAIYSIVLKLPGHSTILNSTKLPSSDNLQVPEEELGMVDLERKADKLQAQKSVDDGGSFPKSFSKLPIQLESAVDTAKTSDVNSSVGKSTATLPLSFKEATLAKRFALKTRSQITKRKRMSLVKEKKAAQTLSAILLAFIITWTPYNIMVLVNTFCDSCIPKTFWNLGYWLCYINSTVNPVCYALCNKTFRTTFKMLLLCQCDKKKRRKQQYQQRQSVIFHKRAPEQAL
Effect on: ligand displacement
Concentration: 10 µM
The inhibition of `Cc1c(N2CCNCC2)nc2ccc(Br)cc2c1C(=O)NC[C@H](CCC(=O)O)c1ccccc1Cl` is reported as 13.7%.
`CC(=O)Nc1ncc(CN2CCC[C@H](Cc3cc(C)nc(C)c3)C2)s1` gave an inhibition of 8.4%.
The inhibition of `COc1cc(N[C@@H]2CCCC[C@]2(O)C(F)(F)F)ccc1F` is reported as 25.6%.
`Nc1nc(NCc2ccccc2)nc(-c2cccc(CO)c2)n1` gave an inhibition of 21.6%.
`CN([C@@H]1CCc2c(CC(=O)O)c3ccccc3n2C1)S(=O)(=O)c1ccc(F)cc1` has an inhibition of -17.2%.
The inhibition of `Cc1ccc(-c2cnc([C@@]3(O)CC[C@H](C(=O)O)C(C)(C)C3)s2)cc1Nc1cccc(C(F)(F)F)n1` is reported as 6.69%.
The inhibition of `Cc1c(NC(=O)c2cc(C(N)=O)nc3cc(F)ccc23)c(C(F)(F)F)nn1Cc1ccc(C#N)cc1` is reported as -6.5%.
With `CC(=O)N1CCC(c2ccc(C(=O)NC3=NCCN3)cc2C(F)(F)F)CC1` the inhibition was -10.9%.
`Cn1cc(Cl)c2c(Oc3c(F)cc(Nc4cc(Cl)nc(N)n4)cc3F)ccnc21` has an inhibition of -4.88%.
`c1ccc(C2CCN(c3cnc4c(N5CCOCC5)nccn34)CC2)cc1` has an inhibition of -12.1%.
For `O=C(Nc1ccc(Oc2ccc(F)cc2)cc1)N1CCc2ncccc2[C@H]1c1ccc(F)cc1`, the inhibition was -3.47%.
`CN(C)C(=O)c1sc2nc(N3CCC(S(C)(=O)=O)CC3)cc(C(F)(F)F)c2c1N` gave an inhibition of 7.05%.
`O=C1NC(c2ccccn2)Sc2ccccc21` (stereo not drawn) has an inhibition of -13.5%.
With `CN1CCN(C(=O)C(C)(C)c2ccc(C(=O)Nc3cn4cc(-c5cc(C(C)(C)C)cc(C(C)(C)C)c5)ccc4n3)cc2)CC1` the inhibition was 40.4%.
`O=C(N[C@H]1CCCCC/C=C\C2C[C@@]2(C(=O)O)NC(=O)[C@@H]2C[C@@H](Oc3ccncc3)CN2C1=O)OC1CCCC1` (stereo partly drawn) gave an inhibition of -5.57%.
`CN(C)c1ncnc(-c2ccc3nc(Nc4cc(CN5CCN(C(=O)CC(F)(F)F)CC5)ccn4)[nH]c3c2)c1Cl` gave an inhibition of 23.9%.
With `c1ccc(N2CCN(Cc3nc4ccccc4[nH]3)CC2)nc1` the inhibition was -1.54%.
With `O=c1nc(-c2ccccn2)sc2ccccc12` the inhibition was -12.5%.
For `Nc1nc(NCc2ccccc2)nc(-c2ccccc2CO)n1`, the inhibition was 36%.
`CS(=O)(=O)N1CCCC(NC(=O)[C@H](CCC2CCCCC2)NC(=O)c2ccc(CNC(=O)c3cnc4ccccn34)cc2)C1` (stereo partly drawn) has an inhibition of 20.6%.
With `N#CC1(c2ccccn2)CCN(Cc2cc(C(=O)N3CCCC3)c(=O)n3ccccc23)CC1` the inhibition was -12.9%.
With `CCC(F)(F)c1cc(N2CCC(S(C)(=O)=O)CC2)nc2sc(C(N)=O)c(N)c12` the inhibition was 21.1%.
With `Cc1noc([C@H]2C[C@@H](c3ccc(C(F)(F)F)cc3)CN(C(=O)N3CCS(=O)(=O)C3)C2)n1` the inhibition was -1.45%.
`O=C(NS(=O)(=O)c1ccc(NCC2CCOCC2)c([N+](=O)[O-])c1)c1ccc(N2CCN(Cc3ccc(C(F)(F)F)cc3-c3ccc(Cl)cc3)CC2)cc1Oc1cnc2[nH]ccc2c1` gave an inhibition of 12.6%.
`CC[C@H](CC(=O)O)n1c(=O)c2ncccc2n(Cc2cn(C)c3cc(C)cc(C)c23)c1=O` has an inhibition of 23.8%.

Series 2
Target: DNA polymerase theta, ATPase domain (POLQ, Homo sapiens, UniProt O75417)
Sequence of UniProt O75417 (whole entry, unmodified, looked up): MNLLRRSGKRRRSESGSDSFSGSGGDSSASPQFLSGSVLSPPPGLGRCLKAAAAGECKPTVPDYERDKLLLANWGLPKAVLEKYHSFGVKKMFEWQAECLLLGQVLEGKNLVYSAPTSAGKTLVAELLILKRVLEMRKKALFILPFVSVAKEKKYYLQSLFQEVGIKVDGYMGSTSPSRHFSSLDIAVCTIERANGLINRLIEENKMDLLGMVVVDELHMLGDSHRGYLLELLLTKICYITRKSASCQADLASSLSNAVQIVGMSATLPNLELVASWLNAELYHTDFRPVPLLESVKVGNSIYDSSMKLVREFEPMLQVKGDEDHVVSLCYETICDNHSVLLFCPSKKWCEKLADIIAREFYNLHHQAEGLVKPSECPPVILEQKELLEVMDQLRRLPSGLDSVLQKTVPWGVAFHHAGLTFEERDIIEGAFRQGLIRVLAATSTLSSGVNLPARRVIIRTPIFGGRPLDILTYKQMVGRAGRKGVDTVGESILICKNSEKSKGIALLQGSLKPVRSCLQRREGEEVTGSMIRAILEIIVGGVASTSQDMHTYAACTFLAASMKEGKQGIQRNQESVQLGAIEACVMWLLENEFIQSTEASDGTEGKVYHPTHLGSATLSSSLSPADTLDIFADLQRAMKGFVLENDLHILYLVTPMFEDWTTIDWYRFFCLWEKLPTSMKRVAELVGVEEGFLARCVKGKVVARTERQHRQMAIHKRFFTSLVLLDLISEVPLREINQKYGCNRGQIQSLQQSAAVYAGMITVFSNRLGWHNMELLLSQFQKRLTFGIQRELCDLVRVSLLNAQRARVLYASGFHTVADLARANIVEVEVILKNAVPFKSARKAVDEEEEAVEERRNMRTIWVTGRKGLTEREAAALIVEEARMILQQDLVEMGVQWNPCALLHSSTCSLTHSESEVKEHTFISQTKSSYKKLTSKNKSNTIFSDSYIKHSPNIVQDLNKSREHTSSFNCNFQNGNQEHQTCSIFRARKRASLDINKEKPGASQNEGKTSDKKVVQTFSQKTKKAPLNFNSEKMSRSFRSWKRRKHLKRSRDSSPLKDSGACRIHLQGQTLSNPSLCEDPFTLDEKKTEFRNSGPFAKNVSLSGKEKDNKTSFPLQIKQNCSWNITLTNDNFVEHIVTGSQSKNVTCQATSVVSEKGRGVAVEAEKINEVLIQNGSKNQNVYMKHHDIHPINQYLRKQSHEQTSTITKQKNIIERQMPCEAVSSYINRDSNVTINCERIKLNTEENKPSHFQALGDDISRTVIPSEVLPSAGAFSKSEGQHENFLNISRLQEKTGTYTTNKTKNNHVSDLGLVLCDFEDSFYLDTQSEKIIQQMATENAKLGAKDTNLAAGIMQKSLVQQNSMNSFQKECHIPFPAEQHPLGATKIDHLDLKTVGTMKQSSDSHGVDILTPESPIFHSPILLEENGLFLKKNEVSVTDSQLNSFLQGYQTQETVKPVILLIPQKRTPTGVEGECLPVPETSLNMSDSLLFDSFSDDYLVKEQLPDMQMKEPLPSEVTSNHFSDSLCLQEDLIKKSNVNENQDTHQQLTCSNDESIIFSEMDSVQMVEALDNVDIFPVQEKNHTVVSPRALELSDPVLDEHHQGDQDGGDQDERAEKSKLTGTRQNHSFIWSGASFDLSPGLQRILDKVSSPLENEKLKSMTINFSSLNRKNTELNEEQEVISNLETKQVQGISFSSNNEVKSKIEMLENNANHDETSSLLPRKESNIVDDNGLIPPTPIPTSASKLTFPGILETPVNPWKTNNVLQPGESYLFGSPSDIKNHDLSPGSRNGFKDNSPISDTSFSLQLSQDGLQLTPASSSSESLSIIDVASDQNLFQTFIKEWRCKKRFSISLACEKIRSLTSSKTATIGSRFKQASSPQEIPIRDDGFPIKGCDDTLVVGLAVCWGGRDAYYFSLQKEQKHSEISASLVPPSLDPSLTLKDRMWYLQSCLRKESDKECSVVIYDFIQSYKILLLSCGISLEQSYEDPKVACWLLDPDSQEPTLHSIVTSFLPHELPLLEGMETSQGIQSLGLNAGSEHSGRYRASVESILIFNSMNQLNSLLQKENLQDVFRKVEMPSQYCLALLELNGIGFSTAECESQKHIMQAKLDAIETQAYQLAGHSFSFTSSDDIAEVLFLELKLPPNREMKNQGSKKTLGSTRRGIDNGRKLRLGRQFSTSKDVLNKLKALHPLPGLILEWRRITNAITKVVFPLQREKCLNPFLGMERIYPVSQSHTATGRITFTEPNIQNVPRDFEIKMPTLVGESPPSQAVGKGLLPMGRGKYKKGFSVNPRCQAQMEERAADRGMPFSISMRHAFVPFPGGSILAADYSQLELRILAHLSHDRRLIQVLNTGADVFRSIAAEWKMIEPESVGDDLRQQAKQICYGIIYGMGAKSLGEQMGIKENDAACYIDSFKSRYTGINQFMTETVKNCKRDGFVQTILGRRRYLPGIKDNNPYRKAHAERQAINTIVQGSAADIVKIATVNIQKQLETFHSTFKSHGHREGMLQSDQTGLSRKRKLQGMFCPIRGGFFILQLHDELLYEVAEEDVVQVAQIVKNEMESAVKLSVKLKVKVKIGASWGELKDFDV
Effect on: enzyme activity
Action: inhibitor
Concentration: 77 µM
Baseline: untreated
With `C/C(=C\c1csc(C)n1)[C@@H]1C[C@@H]2O[C@@H]2CCC[C@H](C)[C@H](O)[C@@H](C)C(=O)C(C)(C)[C@@H](O)CC(=O)O1` the remaining activity was 98.4%.
For `CN1[C@@H]2CC(=O)C[C@H]1[C@H](O)C2`, the remaining activity was 83.9%.
`NCC(O)c1ccc(O)cc1` (racemic) has a remaining activity of 101%.
With `C#CCOC(=O)C1=CCCN(C)C1` the remaining activity was 99%.

Series 3
Compound: Cc1nc(Nc2ncc(C(=O)Nc3c(C)cccc3Cl)s2)cc(N2CCN(CCO)CC2)n1
Effect on: enzyme activity
Action: inhibitor
Method: radiometric
Concentration: 0.5 µM
It gave 88.7% for “activity vs control” (STK33 (Homo sapiens, UniProt Q9BYT3)).
For DYRK1B (Homo sapiens, UniProt Q9Y463): “activity vs control” read 98.4%.
LTK (Homo sapiens, UniProt P29376) — “activity vs control”: 97.7%.

Series 4
Structure (SMILES): CC(=O)N[C@@H](Cc1c[nH]c2ccccc12)C(=O)N[C@@H](CCC(=O)C=[N+]=[N-])C(=O)OC(C)C
It gave 104% and 100% and 105% and 96.2% and 114% and 118% for body weight (C57BL/6 CES1-/- mouse, both sexes; 0.1 mg/kg, day 18).
The body weight was 110% and 93% and 100% and 96% (C57BL/6 CES1-/- mouse, EL4 tumour; intravenous, 1 mg/kg DON equivalent, treatment day 14, 5 days per week; baseline: baseline).
C57BL/6 CES1-/- mouse, both sexes; 0.3 mg/kg, day 9 — body weight: 100% and 95.7% and 96.4%.
It gave 105% and 90.9% and 89.7% and 95.5% and 100% for body weight (C57BL/6 CES1-/- mouse, both sexes; 1 mg/kg, day 17).
For C57BL/6 CES1-/- mouse, both sexes; 1 mg/kg, day 16: body weight read 100% and 90.9% and 93.1%.
For C57BL/6 CES1-/- mouse, both sexes; 0.3 mg/kg, day 7: body weight read 100%.
It gave 93% and 96% and 100% and 92% and 110% for body weight (C57BL/6 CES1-/- mouse, EL4 tumour; intravenous, 1 mg/kg DON equivalent, treatment day 16, 5 days per week; baseline: baseline).

Series 5
Target: Calcium/calmodulin-dependent protein kinase type II subunit alpha (CAMK2A, Homo sapiens, UniProt Q9UQM7)
Sequence of UniProt Q9UQM7 (whole entry, looked up): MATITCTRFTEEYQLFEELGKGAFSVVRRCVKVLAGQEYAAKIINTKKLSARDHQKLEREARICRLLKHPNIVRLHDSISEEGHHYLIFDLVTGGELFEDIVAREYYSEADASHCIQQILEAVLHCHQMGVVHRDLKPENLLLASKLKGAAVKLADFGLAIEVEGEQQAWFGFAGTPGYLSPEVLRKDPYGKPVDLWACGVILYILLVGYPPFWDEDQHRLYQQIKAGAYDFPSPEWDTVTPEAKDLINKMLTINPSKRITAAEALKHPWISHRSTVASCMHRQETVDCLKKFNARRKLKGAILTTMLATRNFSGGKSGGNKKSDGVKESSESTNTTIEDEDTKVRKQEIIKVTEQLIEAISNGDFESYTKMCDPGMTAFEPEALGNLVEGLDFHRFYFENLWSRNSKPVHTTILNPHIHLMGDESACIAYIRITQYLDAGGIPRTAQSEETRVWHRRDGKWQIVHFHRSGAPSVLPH
Effect on: enzyme activity
Action: inhibitor
Concentration: 10 µM
For `CCC(C)C(=O)O[C@@H]1[C@@H](OC(C)=O)[C@]2(C)[C@H](C(C)=O)CC[C@@]23O[C@]32CC[C@H]3C[C@@H](O[C@H]4C[C@@H](OC)[C@H](O[C@@H]5O[C@H](C)[C@@H](O)[C@@H](OC)[C@H]5O)[C@@H](C)O4)CC[C@]3(C)[C@@H]12` (stereo partly drawn), the inhibition was 14%.
`Cc1ccc(C=O)cc1` has an inhibition of 2%.
`O=C(O)COc1ccccc1` gave an inhibition of 11%.
`CCN(CC)N=O` gave an inhibition of 5%.
For `C=C1[C@H]2C[C@@]3([C@@H]1O)[C@@H](CC2=O)[C@]12[C@@H]4C[C@H]3[C@H]1N(CC)C[C@]4(C)CC[C@@H]2O`, the inhibition was 15%.
`COc1cc(C=O)cc(OC)c1OC` has an inhibition of -2%.
`CCN1C[C@]2(C)CC[C@H](O)[C@]34C1[C@@H](C[C@H]23)[C@@]1(O)C[C@H](OC)[C@H]2C[C@@H]4[C@@H]1[C@H]2O` has an inhibition of -5%.
With `CN1[C@@H]2CC(O)C[C@H]1[C@@H]1O[C@@H]12` (stereo partly drawn) the inhibition was 12%.
`CC(C)=CCC[C@]1(C)C=Cc2c(O)c3c(c(CC=C(C)C)c2O1)O[C@]12C(=C[C@@H]4C[C@H]1C(C)(C)O[C@@]2(C/C=C(/C)C(=O)O)C4=O)C3=O` gave an inhibition of -33%.
The inhibition of `Oc1cc(O)cc(/C=C/c2ccc(O)cc2O)c1` is reported as 87%.
`O[C@H]1[C@H](O)[C@@H](O)CN2CC[C@H](O)[C@H]12` gave an inhibition of -32%.
`CCN1C[C@]2(COC)[C@H](O)C[C@H](OC)[C@]34C1[C@H]([C@H](OC)[C@H]23)[C@]1(O)[C@H]2[C@@H](O)[C@](O)(C[C@H]24)[C@@H](OC)[C@@H]1O` has an inhibition of -4%.

Some of these lines once more (series 4):
For C57BL/6 CES1-/- mouse, both sexes; 1 mg/kg, day 16: body weight read 100% and 90.9% and 93.1%.
For C57BL/6 CES1-/- mouse, both sexes; 0.3 mg/kg, day 7: body weight read 100%.
C57BL/6 CES1-/- mouse, both sexes; 0.3 mg/kg, day 9 — body weight: 100% and 95.7% and 96.4%.
It gave 104% and 100% and 105% and 96.2% and 114% and 118% for body weight (C57BL/6 CES1-/- mouse, both sexes; 0.1 mg/kg, day 18).
It gave 93% and 96% and 100% and 92% and 110% for body weight (C57BL/6 CES1-/- mouse, EL4 tumour; intravenous, 1 mg/kg DON equivalent, treatment day 16, 5 days per week; baseline: baseline).
